Published values of several laboratories.
A part holds a random share of what one study measured. Several values in a cell are separate wells, animals, samples, runs or records.
UniProt Q5XXA6, sequence (whole entry, unmodified, looked up): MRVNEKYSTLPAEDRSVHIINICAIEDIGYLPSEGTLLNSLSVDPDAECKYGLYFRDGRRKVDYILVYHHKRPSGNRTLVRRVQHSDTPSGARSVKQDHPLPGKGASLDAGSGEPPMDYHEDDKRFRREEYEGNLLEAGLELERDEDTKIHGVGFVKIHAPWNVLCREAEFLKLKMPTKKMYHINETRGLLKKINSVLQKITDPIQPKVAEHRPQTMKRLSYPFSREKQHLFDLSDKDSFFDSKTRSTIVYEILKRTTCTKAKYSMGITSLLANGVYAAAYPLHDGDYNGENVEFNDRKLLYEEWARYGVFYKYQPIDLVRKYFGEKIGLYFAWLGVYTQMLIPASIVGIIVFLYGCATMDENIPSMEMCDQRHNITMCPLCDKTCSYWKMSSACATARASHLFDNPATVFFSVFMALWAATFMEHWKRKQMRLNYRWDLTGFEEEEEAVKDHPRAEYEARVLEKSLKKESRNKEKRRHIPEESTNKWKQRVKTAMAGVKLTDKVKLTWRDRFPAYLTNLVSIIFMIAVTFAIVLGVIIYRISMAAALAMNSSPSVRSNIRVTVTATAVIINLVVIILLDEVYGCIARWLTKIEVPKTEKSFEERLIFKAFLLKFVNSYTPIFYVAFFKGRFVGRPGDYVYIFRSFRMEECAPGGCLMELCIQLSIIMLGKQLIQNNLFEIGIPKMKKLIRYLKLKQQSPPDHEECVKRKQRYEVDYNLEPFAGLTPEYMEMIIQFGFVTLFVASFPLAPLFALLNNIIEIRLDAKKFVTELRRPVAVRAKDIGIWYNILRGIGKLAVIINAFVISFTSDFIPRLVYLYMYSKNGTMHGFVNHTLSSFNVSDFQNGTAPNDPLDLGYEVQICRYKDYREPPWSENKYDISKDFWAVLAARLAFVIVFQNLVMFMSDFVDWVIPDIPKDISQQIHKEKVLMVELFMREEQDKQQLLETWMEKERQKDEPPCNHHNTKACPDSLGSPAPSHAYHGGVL
UniProt Q15349, sequence (whole entry, looked up): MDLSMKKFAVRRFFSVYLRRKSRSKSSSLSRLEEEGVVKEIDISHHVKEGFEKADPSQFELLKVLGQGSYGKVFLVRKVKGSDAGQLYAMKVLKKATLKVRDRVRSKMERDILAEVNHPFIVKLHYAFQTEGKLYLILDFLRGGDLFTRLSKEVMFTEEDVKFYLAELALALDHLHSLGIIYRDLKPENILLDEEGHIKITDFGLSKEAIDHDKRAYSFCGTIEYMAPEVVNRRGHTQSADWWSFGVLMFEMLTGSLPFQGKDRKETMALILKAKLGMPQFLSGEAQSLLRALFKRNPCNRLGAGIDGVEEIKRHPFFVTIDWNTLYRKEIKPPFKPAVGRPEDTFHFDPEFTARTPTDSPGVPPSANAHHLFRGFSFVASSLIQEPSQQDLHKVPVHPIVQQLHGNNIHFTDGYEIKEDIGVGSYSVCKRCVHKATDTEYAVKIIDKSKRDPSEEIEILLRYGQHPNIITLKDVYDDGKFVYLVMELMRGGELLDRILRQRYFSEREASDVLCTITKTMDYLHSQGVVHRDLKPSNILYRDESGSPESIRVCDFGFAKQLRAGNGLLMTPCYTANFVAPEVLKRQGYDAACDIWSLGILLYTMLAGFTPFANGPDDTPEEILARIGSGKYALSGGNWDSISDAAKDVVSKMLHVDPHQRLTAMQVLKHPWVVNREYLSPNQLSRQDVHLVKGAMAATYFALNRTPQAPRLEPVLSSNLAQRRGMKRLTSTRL
UniProt P49840, sequence (whole entry, looked up): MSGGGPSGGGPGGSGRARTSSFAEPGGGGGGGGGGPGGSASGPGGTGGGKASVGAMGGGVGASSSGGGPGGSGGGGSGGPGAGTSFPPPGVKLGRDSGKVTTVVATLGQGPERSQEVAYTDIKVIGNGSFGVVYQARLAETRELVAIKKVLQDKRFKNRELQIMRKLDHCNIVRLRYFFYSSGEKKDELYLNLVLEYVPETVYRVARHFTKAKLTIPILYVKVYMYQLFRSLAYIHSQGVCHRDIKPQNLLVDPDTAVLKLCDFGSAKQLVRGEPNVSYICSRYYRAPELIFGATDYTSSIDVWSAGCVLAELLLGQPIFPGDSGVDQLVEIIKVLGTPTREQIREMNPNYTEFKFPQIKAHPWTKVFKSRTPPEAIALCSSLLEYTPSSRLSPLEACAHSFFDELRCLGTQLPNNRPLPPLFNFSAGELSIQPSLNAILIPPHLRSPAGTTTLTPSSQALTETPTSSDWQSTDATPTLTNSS
UniProt P31751, sequence (whole entry, looked up): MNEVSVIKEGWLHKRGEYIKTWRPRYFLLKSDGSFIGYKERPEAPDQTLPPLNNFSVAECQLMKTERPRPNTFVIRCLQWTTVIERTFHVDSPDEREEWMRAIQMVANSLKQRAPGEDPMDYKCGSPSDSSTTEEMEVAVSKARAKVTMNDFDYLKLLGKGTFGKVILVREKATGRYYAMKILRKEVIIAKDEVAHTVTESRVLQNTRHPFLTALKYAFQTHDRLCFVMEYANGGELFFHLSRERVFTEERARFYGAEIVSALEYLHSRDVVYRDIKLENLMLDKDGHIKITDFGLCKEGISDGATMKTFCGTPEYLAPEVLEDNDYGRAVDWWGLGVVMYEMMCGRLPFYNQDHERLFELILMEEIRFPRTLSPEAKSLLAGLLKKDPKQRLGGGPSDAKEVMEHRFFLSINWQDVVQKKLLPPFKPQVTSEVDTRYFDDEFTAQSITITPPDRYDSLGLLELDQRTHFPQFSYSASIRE
UniProt Q9UQ88, sequence (whole entry, looked up): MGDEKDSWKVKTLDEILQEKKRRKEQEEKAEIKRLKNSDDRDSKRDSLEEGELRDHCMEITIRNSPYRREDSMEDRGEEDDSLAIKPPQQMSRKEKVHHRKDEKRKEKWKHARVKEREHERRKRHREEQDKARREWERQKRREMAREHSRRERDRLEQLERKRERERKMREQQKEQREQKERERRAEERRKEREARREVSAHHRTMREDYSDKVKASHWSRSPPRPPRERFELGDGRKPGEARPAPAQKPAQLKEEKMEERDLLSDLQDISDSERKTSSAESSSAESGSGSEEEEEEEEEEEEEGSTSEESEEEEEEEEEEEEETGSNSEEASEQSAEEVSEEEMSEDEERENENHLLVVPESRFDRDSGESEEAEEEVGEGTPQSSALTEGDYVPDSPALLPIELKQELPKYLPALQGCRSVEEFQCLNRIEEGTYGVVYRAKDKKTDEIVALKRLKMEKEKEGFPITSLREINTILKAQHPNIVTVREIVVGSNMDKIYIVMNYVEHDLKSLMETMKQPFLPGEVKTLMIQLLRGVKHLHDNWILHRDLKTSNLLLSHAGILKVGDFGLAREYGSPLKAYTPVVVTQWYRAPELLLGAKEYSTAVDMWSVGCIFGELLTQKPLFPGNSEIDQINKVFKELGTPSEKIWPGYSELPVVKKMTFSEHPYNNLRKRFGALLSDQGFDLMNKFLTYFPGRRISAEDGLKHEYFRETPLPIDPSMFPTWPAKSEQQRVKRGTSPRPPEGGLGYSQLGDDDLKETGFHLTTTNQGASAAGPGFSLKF
UniProt Q8TD19, sequence (whole entry, looked up): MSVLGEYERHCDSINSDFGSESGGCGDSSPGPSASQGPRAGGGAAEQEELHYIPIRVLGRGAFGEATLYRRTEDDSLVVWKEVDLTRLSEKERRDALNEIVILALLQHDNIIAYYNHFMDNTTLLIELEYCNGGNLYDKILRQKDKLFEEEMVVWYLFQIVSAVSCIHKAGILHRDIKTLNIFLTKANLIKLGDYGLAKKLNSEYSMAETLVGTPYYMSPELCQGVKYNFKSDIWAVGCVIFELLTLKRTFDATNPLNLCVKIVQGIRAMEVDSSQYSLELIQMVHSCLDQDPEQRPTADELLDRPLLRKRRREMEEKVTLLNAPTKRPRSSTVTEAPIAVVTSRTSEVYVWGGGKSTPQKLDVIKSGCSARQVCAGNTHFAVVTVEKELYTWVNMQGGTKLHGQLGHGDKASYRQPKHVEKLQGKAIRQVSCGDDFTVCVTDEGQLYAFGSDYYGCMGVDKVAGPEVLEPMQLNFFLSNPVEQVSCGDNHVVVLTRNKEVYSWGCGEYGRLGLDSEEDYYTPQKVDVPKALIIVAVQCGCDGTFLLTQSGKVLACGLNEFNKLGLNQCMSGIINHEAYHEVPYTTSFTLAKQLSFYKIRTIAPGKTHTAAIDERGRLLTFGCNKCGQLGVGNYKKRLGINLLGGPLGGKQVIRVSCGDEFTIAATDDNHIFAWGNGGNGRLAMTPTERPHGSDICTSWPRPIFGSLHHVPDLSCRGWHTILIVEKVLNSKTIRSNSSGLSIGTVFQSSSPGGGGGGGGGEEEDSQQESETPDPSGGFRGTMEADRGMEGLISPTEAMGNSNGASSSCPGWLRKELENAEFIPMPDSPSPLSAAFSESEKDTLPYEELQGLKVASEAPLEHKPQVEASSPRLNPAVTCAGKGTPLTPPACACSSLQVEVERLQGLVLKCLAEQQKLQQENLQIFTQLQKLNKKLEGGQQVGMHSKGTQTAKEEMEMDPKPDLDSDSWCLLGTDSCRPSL
UniProt Q9UPZ9, sequence (whole entry, looked up): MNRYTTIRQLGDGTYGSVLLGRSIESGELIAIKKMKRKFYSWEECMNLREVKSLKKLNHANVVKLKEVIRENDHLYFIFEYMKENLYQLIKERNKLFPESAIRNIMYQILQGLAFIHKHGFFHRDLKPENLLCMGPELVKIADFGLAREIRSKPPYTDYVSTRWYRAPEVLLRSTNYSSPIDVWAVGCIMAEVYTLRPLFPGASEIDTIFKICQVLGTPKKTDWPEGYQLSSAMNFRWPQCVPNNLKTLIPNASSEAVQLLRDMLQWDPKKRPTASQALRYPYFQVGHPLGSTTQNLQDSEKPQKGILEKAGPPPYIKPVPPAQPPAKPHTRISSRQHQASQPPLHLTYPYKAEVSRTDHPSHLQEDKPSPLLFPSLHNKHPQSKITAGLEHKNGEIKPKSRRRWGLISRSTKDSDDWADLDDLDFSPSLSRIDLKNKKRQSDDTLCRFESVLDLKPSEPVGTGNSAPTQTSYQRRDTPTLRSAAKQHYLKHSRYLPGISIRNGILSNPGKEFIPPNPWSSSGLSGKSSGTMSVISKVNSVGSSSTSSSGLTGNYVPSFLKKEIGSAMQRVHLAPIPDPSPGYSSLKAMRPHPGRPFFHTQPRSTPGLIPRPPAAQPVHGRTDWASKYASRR

Set 1 — read-out: cell-free assay; method: competition with immobilised ligand; tested at: 1 µM
SMILES: CCCCN(CCCC)C(=O)CN1C[C@@H](c2cc(OC)c3c(c2)OCO3)[C@H](C(=O)O)[C@H]1CC(C)(C)CCC
target	remaining binding [%]
CILK1 (Homo sapiens, UniProt Q9UPZ9)	83.5
Ribosomal protein S6 kinase alpha-2, N-terminal kinase domain (RPS6KA2, Homo sapiens, UniProt Q15349)	84.7
MET (Homo sapiens, UniProt P08581, M1250T)	100
AKT2 (Homo sapiens, UniProt P31751)	100
EGFR (Homo sapiens, UniProt P00533, L858R/T790M)	100
CDK11A (Homo sapiens, UniProt Q9UQ88)	98.3
NEK9 (Homo sapiens, UniProt Q8TD19)	84.2
GSK3A (Homo sapiens, UniProt P49840)	79.9
MKNK2 (Homo sapiens, UniProt Q9HBH9)	96.5
CDC42BPA (Homo sapiens, UniProt Q5VT25)	96.6

Set 2 — SMILES: C=CCc1ccc(O)c(-c2ccc(O)c(CC=C)c2)c1; read-out: chloride current; method: whole-cell voltage clamp
target	mode	tested at	setting	IC50 [µM]
Anoctamin-1 (ANO1, Homo sapiens, UniProt Q5XXA6, del476-501/L548A)			membrane voltage -60 mV	6.27
Anoctamin-1 (ANO1, Homo sapiens, UniProt Q5XXA6, del476-501/F803I)	inhibitor	40 mV holding voltage		6.73
Anoctamin-1 (ANO1, Homo sapiens, UniProt Q5XXA6, del476-501/E650A)			membrane voltage -100 mV	9.34
Anoctamin-1 (ANO1, Homo sapiens, UniProt Q5XXA6, del476-501/F803W)	inhibitor		mutant F777W	7.43

Set 3 — target: panel of 300 human kinases; tested at: 0.5 µM; direction: higher = more selective
SMILES	Gini score
CO[C@H]1[C@@H](OC)C[C@H](C)[C@@H](OC)C2=CC(=O)C=C(NC(=O)/C(C)=C/C=C\[C@H](OC)[C@@H](OC(N)=O)/C(C)=C/[C@@H]1C)C2=O	0.64
CN(C)S(=O)(=O)c1ccc2c(c1)/C(=C/c1cc3c([nH]1)CCCC3)C(=O)N2	0.65
Nc1ncnc2c1c(-c1ccc(Oc3ccccc3)cc1)cn2C1CCCC1	0.75
COc1cc2ncnc(N3CCN(C(=O)Nc4ccc(Oc5ccccc5)cc4)CC3)c2cc1OC	0.62
CC(C)[C@H](CO)Nc1nc(Nc2cccc(Cl)c2)c2ncn(C(C)C)c2n1	0.69
CS(=O)(=O)CCNCc1ccc(-c2ccc3ncnc(Nc4ccc(OCc5cccc(F)c5)c(Cl)c4)c3c2)o1	0.77

Set 4 — cell line: mouse MPNST tumor cells; method: high-content immunofluorescence imaging; refers to: nuclear SOX9; tested at: 10 µM; time: 12 h; setting: mean of 2 replicates; baseline: DMSO control; direction: higher = more nuclear SOX9
Compound	nuclear SOX9 intensity
Clc1ccc(Nc2nnc(Cc3ccncc3)c3ccccc23)cc1	91.9 % of DMSO and 110 % of DMSO
COc1ncc(-c2ccc3c(Nc4cc(Oc5cc(F)cc(F)c5)cc(C(=O)O)c4)c(S(=O)(=O)NC4CC4)cnc3c2)c(OC)n1	103 % of DMSO
CCCOc1ccccc1-c1nc2[nH]nnc2c(=O)[nH]1	96.5 % of DMSO and 110 % of DMSO
CN1CCN(c2ccc(/C=C(\C#N)c3ccccc3Br)cc2)CC1	128 % of DMSO
O=C1Cc2cc(CCN3CCN(c4nsc5ccccc45)CC3)c(Cl)cc2N1	95.7 % of DMSO
